# Published values collected from several papers.
# Compare with care: the assays were run in different laboratories. “And” joins repeats or separate records; there may be more than shown.
# Target: Cyclin-G-associated kinase (GAK, Homo sapiens, UniProt O14976)
SMILES,test,test system,conditions,scale,measurement,value
COc1cc(Nc2nc(C)cc(-c3cnn4nc(OC)ccc34)n2)cc(C(F)(F)F)c1,inhibitor,,1 µM,reference: control,remaining activity,87%
CN1CCN(Cc2ccc(-c3ccc(CO[C@H]4CCC[C@@H]4NC(=O)c4cc(-c5cnn(C)c5)cnc4N)cc3)cc2)CC1,"enzyme activity, inhibitor",,0.1 µM,,inhibition,-1%
CCN1CCN(Cc2ccc(C(=O)Nc3ccc(C)c(NCc4cnc5[nH]ccc5c4OC)c3)cc2C(F)(F)F)CC1,"binding, competition with immobilised ligand",,1 µM,,remaining binding,3.9%
COc1ccc(O)cc1-c1c[nH]c2ncc(-c3cncc(C(=O)N(C)C)c3)cc12,"binding, competition with immobilised ligand",,0.2 µM,,inhibition,0.77%
N[C@H]1CC[C@H](Nc2nccc(-c3cccnc3Oc3ccc(NC(=O)NC4CC4)c4ccccc34)n2)CC1,kinobead competition pulldown,HEK293/HCT116 lysate mixture,"10 µM, 1 h, 4 °C",lower = stronger competition,log2 LFQ intensity,29.6 and 29.7
Cc1cnc2nc1Nc1cccc(c1)COC/C=C/COCc1cc(ccc1OCCN1CCOCC1)N2,binding,,0.1 µM,,remaining binding,54%
C[C@H]1CN(C(=O)c2cn(-c3ccnc(N)n3)c3cc(C#CC4(O)CCCCC4)ccc23)CCN1,"cell-free assay, TR-FRET",,1 µM,,inhibition,3%
C=CC(=O)Nc1cc(-c2nn(C3CCN(CCNC(=O)[C@H](C)CCC45CC6CC(CC(C6)C4)C5)CC3)c3ncnc(N)c23)ccc1Oc1ccccc1,"inhibitor, KiNativ profiling",biochemical,2 µM,,inhibition,16.5%
C=CC(=O)N1CCCC(n2c(=O)c3ncccc3n(Cc3ccc(Oc4ccccc4)cc3)c2=O)C1 (stereo not drawn),"cell-free assay, competition with immobilised ligand",,1 µM,,remaining binding,100%
C=CC(=O)N1Cc2nc(-c3cc(-c4cc(Cl)cnc4Cl)c(F)cc3F)n(-c3ccncn3)c2C1,"cell-free assay, inhibitor",,1 µM,,inhibition,7.8%
COc1c(Cl)cccc1Nc1c(-c2ccncc2C#C[C@@]2(C)CCCN2C(=O)/C=C/CN(C)C)[nH]c2c1C(=O)NCC2,"binding, competition with immobilised ligand",,3 µM,,remaining binding,68%
Nc1ncc2c(n1)-c1c([nH]c3ccc(C4=CCOCC4)cc13)CCC2,"binding, competition with immobilised ligand",,1 µM,,remaining binding,100%
COc1cc(Nc2nccc(-c3cnn4nc(OC)ccc34)n2)cc(C(F)(F)F)c1,"binding, competition with immobilised ligand",,1 µM,,remaining binding,94%
O=C(Cc1ccc(OCc2ccccc2)cc1)NC1(C(=O)O)CCN(C(=O)c2ccc(-c3cccc(Cl)c3)cc2)CC1,"enzyme activity, inhibitor",,10 µM,,activity vs control,110%
CNC(=O)C1CCN(c2cc(C)c(F)cc2NC(=O)c2ccc(-c3cc(O)ccc3C)c(C)c2)CC1,"binding, competition with immobilised ligand",,1 µM,,remaining binding,17%
CNC1C[S+]2CC[S+]3CC[S+](C1)[Ru-4]321([N]=C=S)[n]2c3ccc(OC)cc3c3c4c(c5cc(F)c[n+]1c5c32)C(=O)NC4=O (stereo not drawn),KinomeScan,,0.1 µM,reference: untreated,remaining binding,14%
CC(C)=CC1OC(C)(C)C2C=C3C(=O)C(Cl)=CC(O)C3C3C(O)C4OC4C(=O)C132 (stereo not drawn),"cell-free assay, competition with immobilised ligand",,10 µM,,remaining binding,93%
CCn1cc(C(=O)O)c(=O)c2c(N)c(F)c(NC3CCCCC3)cc21,kinase activity,,"0.1 µM, with: ATP at Km",,inhibition,9.1%
C=CC(=O)N1CCc2ccc(-n3c(=O)ccc4cnc5ccc(-c6cnn(C)c6)cc5c43)cc21,KINOMEscan,,1 µM,reference: DMSO control,remaining binding,76%
Cc1ccc(-c2c(/C=C(\C#N)C(=O)NC(C)C)n(CCCO)c3ncnc(N)c23)cc1,"cell-free assay, competition with immobilised ligand",,1 µM,,remaining binding,61%
CCN1CCN(Cc2ccc(NC(=O)c3ccc(C)c(NC(=O)c4cncc(-c5cccs5)c4)c3)cc2C(F)(F)F)CC1,"binding, competition with immobilised ligand",,1 µM,,remaining binding,1%

# A few entries again:
SMILES,test,test system,conditions,scale,measurement,value
Cc1cnc2nc1Nc1cccc(c1)COC/C=C/COCc1cc(ccc1OCCN1CCOCC1)N2,binding,,0.1 µM,,remaining binding,54%
COc1cc(Nc2nc(C)cc(-c3cnn4nc(OC)ccc34)n2)cc(C(F)(F)F)c1,inhibitor,,1 µM,reference: control,remaining activity,87%
C[C@H]1CN(C(=O)c2cn(-c3ccnc(N)n3)c3cc(C#CC4(O)CCCCC4)ccc23)CCN1,"cell-free assay, TR-FRET",,1 µM,,inhibition,3%
